Experimental data collected from several papers.
Protocols differ between the studies behind these lines.
Organism: Acinetobacter baumannii

C[C@@H]1O[C@@H]1P(=O)(O)O — MIC (broth microdilution; ATCC 17978): 80 µM
NCC[C@H](O)C(=O)N[C@@H]1C[C@H](N)[C@@H](O[C@H]2O[C@H](CN)[C@@H](O)[C@H](O)[C@H]2O)[C@H](O)[C@H]1O[C@H]1O[C@H](CO)[C@@H](O)[C@H](N)[C@H]1O — MIC (broth microdilution; NCTC 13424; 20 h, 5% CO2): > 512 µg/mL
CC1(C)S[C@@H]2[C@H](NC(=O)[C@H](N)c3ccccc3)C(=O)N2[C@H]1C(=O)O — MIC (ATCC BAA-1797, resistant; 18 h, 37 °C, dark): > 128 µM
Cc1c(CN(C)C(=O)/C=C/c2cnc3c(c2)CCC(=O)N3)oc2ccccc12 — MIC (broth microdilution; AR-0313): > 32 µg/mL
C[C@H](N)C(=O)N[C@H](C(=O)N[C@@H](CS)C(=O)N[C@@H](Cc1ccc(O)cc1)C(=O)N[C@@H](CS)C(=O)N[C@@H](CCCNC(=N)N)C(=O)N[C@H](C(=O)NCC(=O)N[C@@H](CCCNC(=N)N)C(=O)O)[C@@H](C)O)[C@@H](C)O — MIC (broth turbidity): 25 µM
C[C@H]1COc2c(N3CCN(C)CC3)c(F)cc3c(=O)c(C(=O)O)cn1c23 — MIC (broth microdilution; NCTC 13424; 20 h, ambient air): 32 µg/mL
CCC[C@@H]1C[C@@H](C(=O)N[C@@H]([C@H]2O[C@H](SC)[C@H](O)[C@@H](O)[C@H]2O)[C@H](C)Cl)N(C)C1 — MIC (broth microdilution; ATCC 17978): 320 µM
Cc1c(CN(C)C(=O)/C=C/c2cnc3c(c2)CC(NC(=O)OC(C)(C)C)C(=O)N3)oc2ccccc12 (stereo not drawn) — MIC (broth microdilution; AR-0312): > 32 µg/mL
NC[C@H]1O[C@H](O[C@H]2[C@H](O)[C@@H](O[C@H]3O[C@H](CO)[C@@H](O)[C@H](N)[C@H]3O)[C@H](N)C[C@@H]2N)[C@H](N)C[C@@H]1O — MIC (broth microdilution; NCTC 13424; 20 h, 5% CO2): > 512 µg/mL
CCN1CCN(C(=O)N[C@@H](C(=O)N[C@@H]2C(=O)N3[C@@H]2SC(C)(C)[C@@H]3C(=O)O)c2ccccc2)C(=O)C1=O — MIC (broth microdilution; 24 h, 37 °C, clinical isolate): > 400 µM
C[C@H]1COc2c(N3CCN(C)CC3)c(F)cc3c(=O)c(C(=O)O)cn1c23 — MIC (agar dilution; 16-16): 16 µg/mL
CC[C@H]1OC(=O)[C@H](C)[C@@H](O[C@H]2C[C@@](C)(OC)[C@@H](O)[C@H](C)O2)[C@H](C)[C@@H](O[C@@H]2O[C@H](C)C[C@H](N(C)C)[C@H]2O)[C@](C)(O)C[C@@H](C)C(=O)[C@H](C)[C@@H](O)[C@]1(C)O — MIC (broth microdilution; ATCC 17978): 20 µM
C[C@@H](O)[C@H]1C(=O)N2C(C(=O)O)=C(SCCN=CN)C[C@H]12 — MIC (broth microdilution; BNCC 194496): 0.5 µg/mL
Cc1cc(Nc2ccc(S(F)(F)(F)(F)F)cc2)n2ccnc2n1 — MIC (Kelly lung isolate): 1.09 µg/mL
c1ccc(OCCn2c(CNC34CC5CC(CC(C5)C3)C4)nc3ccccc32)cc1 — MIC (ATCC 17961): > 128 µg/mL

Excerpt of the above:
Cc1cc(Nc2ccc(S(F)(F)(F)(F)F)cc2)n2ccnc2n1 — MIC (Kelly lung isolate): 1.09 µg/mL
c1ccc(OCCn2c(CNC34CC5CC(CC(C5)C3)C4)nc3ccccc32)cc1 — MIC (ATCC 17961): > 128 µg/mL
